Measured values gathered from unrelated publications.
Compare with care: the assays were run in different laboratories. ± marks the error that the study gave. Converted amounts (≈) assume the structure as drawn.

SMILES	organism	assay	test system	conditions	how to read	endpoint	result
CC(C)(CO)Cc1cc(C(C)(C)C)c(O)c(C(C)(C)C)c1	Plasmodium falciparum	–	7G8	–	–	IC50	7940 nM
CC(C)[C@@H]1NC(=O)[C@@H](CCCN)NC(=O)[C@H]([C@@H](C)O)NC(=O)[C@H](Cc2ccccc2)NC(=O)[C@@H](Cc2ccccc2)NC(=O)[C@H](Cc2ccccc2)NC(=O)[C@@H](CCCN)NC1=O	Acanthamoeba castellanii	–	–	trophozoites	–	IC50	> 16 µg/mL
Cc1cnc(N2CC3(CCOCC3)C2)c(C(=O)Nc2ccc(C(=O)N3CCc4cc(C(=O)Nc5c(C)cccc5F)sc4-c4ccccc43)cc2)c1	human respiratory syncytial virus	viral replication, CPE	HEp-2, A2 passaged with DMSO	–	–	IC90	1.51 nM
CCCCCCCCCCCc1c([N+](=O)[O-])oc2ccc3ccccc3c12	Klebsiella pneumoniae	REMA	–	–	–	MIC90	> 32 µg/mL
COc1cc(N[C@H](C(=O)c2c[nH]c3ccc(OC(F)(F)F)cc23)c2ccc(Cl)cc2OC)cc(S(C)(=O)=O)c1	dengue virus 2	viral infection, luciferase reporter virus	–	0.01 nM, 48 h	–	inhibition	0.6%
COc1cc2nc(N3CCN(C(=O)C4COc5ccccc5O4)CC3)nc(N)c2cc1OC (centres unmarked)	Plasmodium falciparum	–	GB4	–	–	IC50	3160 nM
Cc1ccccc1C(=O)NN=Cc1ccc(O)c(Br)c1	Cryptococcus neoformans	–	–	concentration not given, with: amphotericin B	–	MIC in combination	0.25 µg/mL
Nc1ncnc2c1ncn2[C@@H]1O[C@@H]2COP(=O)(O)O[C@H]3[C@@H](O)[C@H](n4cnc5c(=O)[nH]cnc54)O[C@@H]3COP(=O)(O)O[C@H]2[C@H]1O	West Nile virus	RNA sequencing Reactome analysis, measured: Cell-extracellular matrix interactions (R-HSA-446353)	HFF-1	concentration not given, downregulated pathways, with: West Nile virus infection	baseline: WNV-infected without compound	fold enrichment	20.9
CN[C@H](CC(C)C)C(=O)N[C@H]1C(=O)N[C@@H](CC(N)=O)C(=O)N[C@H]2C(=O)N[C@H]3C(=O)N[C@H](C(=O)N[C@H](C(=O)O)c4cc(O)cc(O)c4-c4cc3ccc4O)[C@H](O)c3ccc(c(Cl)c3)Oc3cc2cc(c3O[C@@H]2O[C@H](CO)[C@@H](O)[C@H](O)[C@H]2O[C@H]2C[C@](C)(N)[C@H](O)[C@H](C)O2)Oc2ccc(cc2Cl)[C@H]1O	Staphylococcus aureus	–	MRSA ATCC 33591	1/2 × MIC	–	biofilm inhibition	97.4%
CC(=O)Nc1sc(C)c(C)c1CN1CCc2ccccc2C1	Plasmodium falciparum	parasite growth, SYBR Green	3D7 wild type	72 h	–	EC50	237 ± 60 nM
NCCCC[C@H]1NC(=O)[C@H](CO)NC(=O)[C@H](Cc2ccccc2)NC(=O)[C@@H](Cc2ccccc2)NC(=O)[C@H](Cc2c[nH]c3ccccc23)NC(=O)[C@@H](CCCN)NC(=O)[C@H](CCCN)NC1=O	Acanthamoeba castellanii	–	–	trophozoites	–	IC50	> 16 µg/mL
CS(=O)(=O)CCCn1c(Cn2c(=O)n(CC(F)(F)F)c3ccncc32)cc2cc(Cl)ccc21	respiratory syncytial virus	RT-qPCR	hospitalized infants 1-24 months, nasal swab	oral, 8 mg/kg daily, day 14, cohort 6-24 months	baseline: baseline	LS mean viral load change	-4.15 log10 copies/mL
CC(C)[C@H]1NC(=O)[C@H](Cc2ccccc2)NC(=O)[C@@H](Cc2c[nH]c3ccccc23)NC(=O)[C@H](CCCNC(=N)N)NC(=O)[C@@H](CCCN)NC(=O)[C@H](CC(N)=O)NC1=O	Naegleria fowleri	–	–	trophozoites	–	IC50	> 16 µg/mL
CC1(C)S[C@@H]2[C@H](NC(=O)[C@H](N)c3ccccc3)C(=O)N2[C@H]1C(=O)O	Escherichia coli	broth microdilution	isolate IU, CTX-M-14, TEM-1	no clavulanic acid	–	MIC	> 200 µg/mL
C#Cc1ccc(O)c(C=NNC(=O)c2cc(Br)cc(Br)c2O)c1	Cryptococcus neoformans	–	H99	unit not given, with: fluconazole	lower = more synergy	FICI	0.62
C[C@H]1COc2c(N3CCN(C)CC3)c(F)cc3c(=O)c(C(=O)O)cn1c23	Streptococcus pneumoniae	–	–	–	–	MIC90	1 µg/mL (≈ 2.77 µM)
Oc1ccc(-c2nc(-c3ccc(Oc4ccc(C(F)(F)F)cc4)cc3)no2)cc1	Clostridioides difficile	–	ATCC 43255	45 µM, 1 h, spores	–	inhibition	14 to 39%
CCN(CC)CC#Cc1ccc2[nH]c(C)c(Cl)c(=O)c2c1	Plasmodium falciparum	parasite growth, SYBR Green	3D7 wild type	72 h	–	EC50	404 ± 88 nM
OC(CCN1CCCCC1)(c1ccccc1)C1CCCCC1 (centres unmarked)	Plasmodium falciparum	–	W2	–	–	IC50	2510 nM
CC(c1ccc(OC(F)(F)F)cc1)c1nn2c(-c3cccs3)nnc2s1 (centres unmarked)	Plasmodium falciparum	parasite growth, SYBR Green	3D7 wild type	72 h	–	EC50	68.8 ± 24 nM
CCN(CC)CCO[C@H]1CC[C@@]2(C)C(=CC[C@@H]3[C@@H]2CC[C@]2(C)C(=O)CC[C@@H]32)C1	human rotavirus	viral replication, focus reduction	MA104, Wa	–	–	EC90	11700 nM

SMILES	organism	assay	test system	conditions	how to read	endpoint	result
Cc1c2c(nn1C)CSCc1cc(n(C)n1)CSc1cc(c3ccccc3c1)OCCCc1c(C(=O)O)n(C)c3c-2c(Cl)ccc13	Staphylococcus aureus	label-free proteomics, measured: acyP	SA113	concentration not given	baseline: untreated	log2 fold change	2.72
COc1nc(NCC(C)C)nc(Oc2ccc(=O)n(Cc3ccccc3)n2)n1	Plasmodium falciparum	parasite growth, SYBR Green	–	72 h	baseline: 3D7-E182D over 3D7	EC50 ratio	14
COC(=O)[C@@H]1[C@H]2C[C@H]3c4[nH]c5ccccc5c4CCN3C[C@@H]2CC[C@@H]1O	Plasmodium falciparum	–	7G8	–	–	IC50	2000 nM
C[C@H]1[C@@H](O)O[C@@H]2O[C@@]3(C)CC[C@H]4[C@H](C)CC[C@@H]1[C@@]24OO3	Plasmodium falciparum	parasite growth, SYBR Green	3D7 wild type	72 h	–	EC50	27.4 ± 6.8 nM
Oc1ccc(-c2nc(-c3ccc(Oc4cccc(I)c4)cc3)no2)cc1	Clostridioides difficile	spore germination	ATCC 43255	45 µM, 1 h	–	inhibition	14 to 39%
COC(=O)N[C@H](C(=O)N1CCC[C@H]1c1ncc(-c2ccc(-c3ccc(-c4cnc([C@@H]5CCCN5C(=O)[C@@H](NC(=O)OC)C(C)C)[nH]4)cc3)cc2)[nH]1)C(C)C	Hepatitis C virus	–	replicon cells	90% effect level, with: IFN-alpha, ratio 2.5:1	–	combination index	0.47
O=C(NN=Cc1ccc(O)c(Br)c1)c1cccc(Br)c1	Cryptococcus neoformans	–	–	concentration not given, with: fluconazole	–	MIC in combination	0.063 µg/mL
C[C@@H](O)[C@@H]1NC(=O)[C@H](Cc2ccccc2)NC(=O)[C@@H](Cc2ccccc2)NC(=O)[C@H]([C@@H](C)O)NC(=O)[C@@H](CCCN)NC(=O)[C@H](CCCN)NC(=O)[C@@H](CCCCN)NC1=O	Naegleria fowleri	–	–	trophozoites	–	IC50	> 16 µg/mL
Cn1c(=O)ccc2ccc(F)c(CCNC[C@H]3CN(c4cnc5c(n4)NC(=O)CO5)C(=O)O3)c21	Campylobacter spp.	–	–	–	–	MIC90	< 0.015 µg/mL
CN(C)c1nc(NCc2cccc(F)c2)c(/N=N/c2ccc(Cl)cc2)c(N(C)C)n1	Ostrinia furnacalis	leaf dipping	–	500 mg/L, 96 h	–	mortality	100%
C[C@@H](O)[C@H]1C(=O)N2C(C(=O)O)=C(S[C@@H]3CN[C@H](C(=O)N(C)C)C3)[C@H](C)[C@H]12	Klebsiella pneumoniae	–	NDM-producing, neutropenic BALB/c mouse, thigh infection, thigh	dose not given, 6 h	–	bacterial burden, best	8.3 log10 CFU/thigh
Cc1ccc2[nH]c3c(c2c1)CCCC3NCCc1ccc(O)cc1 (centres unmarked)	Streptococcus pneumoniae	–	–	concentration not given, 10% fetal bovine serum	baseline: without serum	MIC fold change	4
CNC(=O)c1cc(Cl)cc(C)c1NC(=O)c1cc(Br)nn1-c1ncccc1Cl	Spodoptera litura	leaf-dip	third instar larvae	6.25 ppm, 96 h	–	mortality	100%
CC12CC1(C)C(=O)N(c1cc(Cl)cc(Cl)c1)C2=O (centres unmarked)	Botrytis cinerea	lesion diameter	B05.10, cucumber seedlings	spray, 3 days, 20 °C	–	EC95	18.4 µg/mL (≈ 64.8 µM)
CC(C)[C@@H]1NC(=O)[C@@H](CCCCN)NC(=O)[C@H](CCCN)NC(=O)[C@@H](CC(=O)O)NC(=O)[C@H](C)NC(=O)[C@H](Cc2c[nH]c3ccccc23)NC(=O)[C@@H](Cc2c[nH]c3ccccc23)NC1=O	Acanthamoeba castellanii	–	–	trophozoites	–	IC50	14.8 µg/mL
Cc1ccc2[nH]c3c(c2c1)CCCC3NCCc1ccc(Cl)cc1 (centres unmarked)	Streptococcus pneumoniae	–	–	concentration not given, 10% fetal bovine serum	baseline: without serum	MIC fold change	4
CC(C)[C@@H]1NC(=O)[C@@H](Cc2ccccc2)NC(=O)[C@H](Cc2ccccc2)NC(=O)[C@@H]([C@H](C)O)NC(=O)[C@H]([C@@H](C)O)NC(=O)[C@@H](CCCNC(=N)N)NC1=O	Acanthamoeba castellanii	–	–	trophozoites	–	IC50	> 16 µg/mL
CN(C)CCOC(C)(c1ccccc1)c1ccccn1 (centres unmarked)	Plasmodium falciparum	–	3D7	–	–	IC50	12600 nM
NCCC[C@@H]1NC(=O)[C@@H](CCCN)NC(=O)[C@H](Cc2ccccc2)NC(=O)[C@@H](Cc2ccccc2)NC(=O)[C@H](Cc2ccccc2)NC(=O)[C@@H](CCCN)NC1=O	Naegleria fowleri	–	–	trophozoites	–	IC90	> 16 µg/mL
C#Cc1ccc(O)c(C=NNC(=O)c2ccc(COC)cc2)c1	Cryptococcus neoformans	–	H99	unit not given, with: fluconazole	lower = more synergy	FICI	1

Some of these lines once more:
SMILES	organism	assay	test system	conditions	how to read	endpoint	result
COc1cc2nc(N3CCN(C(=O)C4COc5ccccc5O4)CC3)nc(N)c2cc1OC (centres unmarked)	Plasmodium falciparum	–	GB4	–	–	IC50	3160 nM
Cc1ccccc1C(=O)NN=Cc1ccc(O)c(Br)c1	Cryptococcus neoformans	–	–	concentration not given, with: amphotericin B	–	MIC in combination	0.25 µg/mL
Nc1ncnc2c1ncn2[C@@H]1O[C@@H]2COP(=O)(O)O[C@H]3[C@@H](O)[C@H](n4cnc5c(=O)[nH]cnc54)O[C@@H]3COP(=O)(O)O[C@H]2[C@H]1O	West Nile virus	RNA sequencing Reactome analysis, measured: Cell-extracellular matrix interactions (R-HSA-446353)	HFF-1	concentration not given, downregulated pathways, with: West Nile virus infection	baseline: WNV-infected without compound	fold enrichment	20.9
